Measured values collected from several papers.
A part holds a random share of what one study measured. ± marks the error that the study gave. Converted amounts (≈) assume the structure as drawn.
Chain of UniProt P27448 (whole entry, looked up): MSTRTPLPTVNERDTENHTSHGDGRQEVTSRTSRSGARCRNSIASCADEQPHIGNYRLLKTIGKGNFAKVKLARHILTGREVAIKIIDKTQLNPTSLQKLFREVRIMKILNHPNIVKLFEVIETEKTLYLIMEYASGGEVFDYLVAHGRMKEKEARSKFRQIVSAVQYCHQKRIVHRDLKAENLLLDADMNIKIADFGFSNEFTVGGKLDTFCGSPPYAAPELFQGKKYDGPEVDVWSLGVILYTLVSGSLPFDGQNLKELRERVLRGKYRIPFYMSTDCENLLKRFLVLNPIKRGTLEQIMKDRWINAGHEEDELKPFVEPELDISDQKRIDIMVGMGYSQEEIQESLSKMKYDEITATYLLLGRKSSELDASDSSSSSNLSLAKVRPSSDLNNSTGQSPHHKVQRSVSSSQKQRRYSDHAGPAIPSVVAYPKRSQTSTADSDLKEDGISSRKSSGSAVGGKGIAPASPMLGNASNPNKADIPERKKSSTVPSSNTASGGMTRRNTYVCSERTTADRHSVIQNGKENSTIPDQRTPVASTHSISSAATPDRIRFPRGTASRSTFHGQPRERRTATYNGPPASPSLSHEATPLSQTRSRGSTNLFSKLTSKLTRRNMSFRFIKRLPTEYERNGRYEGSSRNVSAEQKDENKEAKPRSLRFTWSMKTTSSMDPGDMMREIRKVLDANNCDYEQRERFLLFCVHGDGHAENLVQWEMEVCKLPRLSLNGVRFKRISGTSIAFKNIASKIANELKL

Study 1
Organism: Saccharomyces cerevisiae
Method: broth microdilution
Strain: ATCC 9763
| Structure (SMILES) | MFC/MIC ratio |
| --- | --- |
| Nc1nn2c(-c3ccc(Cl)cc3Cl)cc(-c3ccc(OCc4ccccc4)cc3)nc2c1N=Nc1ccc(F)cc1 | 4 |
| Cc1ccc(N=Nc2c(N)nn3c(-c4ccc(Cl)cc4Cl)cc(-c4ccc(OCc5ccccc5)cc4)nc23)cc1 | 3.9 |
| Nc1nn2c(-c3ccco3)cc(-c3ccc(OCc4ccccc4)cc3)nc2c1N=Nc1ccc(F)cc1 | 1.9 |
| COc1ccc(N=Nc2c(N)nn3c(-c4ccc(C)cc4)cc(-c4ccc(OCc5ccccc5)cc4)nc23)cc1 | 3.9 |
| COc1ccc(N=Nc2c(N)nn3c(-c4ccc(Cl)cc4Cl)cc(-c4ccc(OCc5ccccc5)cc4)nc23)cc1 | 4 |

Study 2
Target: mushroom tyrosinase
Read-out: enzyme activity
Tested at: 40 µM
Together with: L-DOPA
| SMILES | inhibition |
| --- | --- |
| COc1cc(-c2nc3ccccc3c(=O)n2Nc2ccc([N+](=O)[O-])cc2[N+](=O)[O-])ccc1OCc1cn(CC(=O)Nc2ccc(Cl)cc2)nn1 | 28.9 ± 2.29% |
| COc1cc(-c2nc3ccccc3c(=O)n2Nc2ccc([N+](=O)[O-])cc2[N+](=O)[O-])ccc1OCc1cn(CC(=O)Nc2ccccc2[N+](=O)[O-])nn1 | 20.3 ± 1.02% |
| COc1cc(-c2nc3ccccc3c(=O)n2Nc2ccc([N+](=O)[O-])cc2[N+](=O)[O-])ccc1OCc1cn(CC(=O)Nc2ccccc2)nn1 | 26.1 ± 5.03% |

Mixed results
| Compound | target | test | conditions | endpoint | value |
| --- | --- | --- | --- | --- | --- |
| COc1cc(/C=N/NC(=S)N/N=C/c2ccc(F)cc2)ccc1Oc1ccnc2cc(Cl)ccc12 | human lysosomal acid alpha-glucosidase | inhibitor | together with: pNPG substrate | IC50 | 9.6 ± 0.22 µg/mL (≈ 18.9 µM) |
| O=C(Nc1cc(-c2ccc(Cl)cc2)[nH]n1)C1CCCCC1 | MAP/microtubule affinity-regulating kinase 3 (MARK3, Homo sapiens, UniProt P27448) | enzyme activity, Dundee kinase panel | 10 µM | remaining activity | 78% |
| COc1cc(/C=N/NC(=S)NN=Cc2ccc([N+](=O)[O-])o2)ccc1Oc1ccnc2cc(Cl)ccc12 | Aldo-keto reductase family 1 member B1 (AKR1B1, Homo sapiens, UniProt P15121) | Lineweaver-Burk kinetics | 1.65 µg (IC20) | Km | 4.02 mM |
| COc1cc(/C=N/NC(=S)N/N=C\c2ccc(Cl)c(Cl)c2)ccc1Oc1ccnc2cc(Cl)ccc12 | human lysosomal acid alpha-glucosidase | inhibitor | together with: pNPG substrate | IC50 | 8.5 ± 0.16 µg/mL (≈ 15.2 µM) |
